Earlier results, collected from citations in different studies.
Numbered parts are unrelated; values within a part may stem from several laboratories.

Study 1 — organism: SARS-CoV-2; effect on: cytopathic effect; cells: Caco-2; concentration: 10 µM
The inhibition of `O=C(O)[C@@H](S)[C@@H](S)C(=O)O` is reported as 30.1%.
The inhibition of `CC[n+]1c(-c2ccccc2)c2cc(N)ccc2c2ccc(N)cc21` is reported as 0.424%.
For `CC(C)C[C@@H](C=O)NC(=O)[C@H](CC(C)C)NC(=O)[C@H](CC(C)C)NC(=O)OCc1ccccc1`, the inhibition was -11.4%.
With `O=C(O)CCCCCCCCCCCCCCc1ccc(I)cc1` the inhibition was 3.3%.
`Nc1ccc2cc3ccc(N)cc3nc2c1` gave an inhibition of 95.8%.
`COc1cc(-c2ccc(/N=N/c3ccc4c(S(=O)(=O)O)cc(S(=O)(=O)O)c(N)c4c3O)c(OC)c2)ccc1/N=N/c1ccc2c(S(=O)(=O)O)cc(S(=O)(=O)O)c(N)c2c1O` gave an inhibition of 18.9%.
`O=C(O)C(=O)CBr` has an inhibition of 10.3%.

Other studies, line by line
The EC50 of `CCN(CC)CCCC(C)Nc1ccnc2cc(Cl)ccc12` (centres unmarked) is reported as 16 µM (Ebola virus; viral replication; Vero E6, eGFP reporter).
Under “IC50 fold change”, `O=C1Nc2ccc(Cl)cc2[C@@](C#CC2CC2)(C(F)(F)F)O1` is recorded as 1.8 fold (HIV-1 reverse transcriptase K101Q; baseline: K101Q over wild type).
`CC(CN(C)C)CN1c2ccccc2CCc2ccccc21` (centres unmarked) gave an IC50 of 11.1 µM (Ebola virus; pseudovirus entry, HIV pseudotype reporter; A549).
For `NC(=O)c1nc(F)c[nH]c1=O`, the survival was 83% (Lassa virus; guinea pig; 300 mg/kg).
`CC(C)C(=O)OCC(=O)[C@@]12O[C@H](C3CCCCC3)O[C@@H]1C[C@H]1[C@@H]3CCC4=CC(=O)C=C[C@]4(C)[C@H]3[C@@H](O)C[C@@]12C` gave an IC50 of 4.33 µM (SARS-CoV-2; viral replication, N protein immunofluorescence).
With `CC(C)(C)c1cc(C(=O)/C(C#N)=N/Nc2cccc(Cl)c2)no1` the IC50 was 4.4 µM (EPAC2 (full-length); GEF activity, inhibitor; together with: cAMP 20 µM).
The EC50 of `COc1ccc([C@H]2c3[nH]c4ccc(Cl)cc4c3CCN2C(=O)Oc2ccc(Cl)cc2)cc1` is reported as 0.00196 µM (SARS-CoV-2; viral replication, refers to: capsid protein; cell culture).
